Literature values that unrelated publications cite.
Compare with care: the assays were run in different laboratories. ± gives the spread as reported.
UniProt O15244, sequence (whole entry, looked up): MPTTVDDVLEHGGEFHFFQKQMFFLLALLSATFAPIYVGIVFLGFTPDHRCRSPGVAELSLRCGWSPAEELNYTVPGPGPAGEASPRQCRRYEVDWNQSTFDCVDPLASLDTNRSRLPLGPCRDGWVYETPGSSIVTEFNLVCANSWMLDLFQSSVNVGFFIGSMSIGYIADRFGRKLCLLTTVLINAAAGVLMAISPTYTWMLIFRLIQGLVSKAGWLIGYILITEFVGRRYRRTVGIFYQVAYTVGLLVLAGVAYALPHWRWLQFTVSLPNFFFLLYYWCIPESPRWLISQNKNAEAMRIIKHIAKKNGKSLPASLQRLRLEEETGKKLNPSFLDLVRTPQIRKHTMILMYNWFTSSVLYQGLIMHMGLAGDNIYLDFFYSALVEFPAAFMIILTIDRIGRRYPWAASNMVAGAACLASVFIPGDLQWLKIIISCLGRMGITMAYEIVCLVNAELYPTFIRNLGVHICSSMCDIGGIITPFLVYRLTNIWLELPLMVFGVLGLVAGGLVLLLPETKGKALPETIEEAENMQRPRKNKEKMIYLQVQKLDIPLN

Compound | tested on | test | system | setting | measurement | result
N[C@@H](CC(=O)N1CCn2c(nnc2C(F)(F)F)C1)Cc1cc(F)c(F)cc1F | SARS-CoV-2 | viral replication | Huh7.5 |  | IC50 | 320 nM
C[C@H]1CO[C@@H]2Cn3cc(C(=O)NCc4ccc(F)cc4F)c(=O)c(O)c3C(=O)N12 | HIV-1 | viral replication, single-round vector infection | IN R263K |  | EC50 | 7.1 ± 0.1 nM
CNP(=O)(OC)Oc1ccc(C(C)(C)C)cc1Cl (stereo not drawn) |  |  |  | pH 7.4 | logD | 3.24
CN(C)CCNc1nc2cc(O)ccc2c2c1C(=O)c1ccccc1-2 | SARS-CoV-2 | cytopathic effect | Caco-2 | 10 µM | inhibition | 92.6%
Cn1c(Cn2ccc(C(F)(F)F)c(Oc3cc(Cl)cc(C#N)c3)c2=O)n[nH]c1=O | HIV-1 | viral replication | MT-4, Y188L mutant |  | EC50 | 2080 ± 1700 nM
C[C@@H]1C[C@H]2[C@@H]3CCC4=CC(=O)C=C[C@]4(C)[C@@]3(F)[C@@H](O)C[C@]2(C)[C@@]1(O)C(=O)CO | SLC22A2 (Homo sapiens, UniProt O15244) |  |  | 20 µM | inhibition | no inhibition
CC(=O)c1c(O)c(C)c(O)c2c1OC1=CC(=O)C(C(C)=O)C(=O)C12C (stereo not drawn) | paraoxonase 1, human | inhibitor |  |  | Ki | 107000 ± 60000 nM
C[C@@H]1CCO[C@H]2Cn3cc(C(=O)NCc4ccc(F)cc4F)c(=O)c(O)c3C(=O)N12 | HIV-1 integrase S230N | viral replication | HIV-1 | single-round vector | EC50 | 7.9 ± 1.3 nM
C=C[C@@H]1C[C@]1(NC(=O)[C@@H]1C[C@@H]2CN1C(=O)[C@H](C(C)(C)C)NC(=O)O[C@@H]1C[C@H]1CCCCCc1nc3ccc(OC)cc3nc1O2)C(=O)NS(=O)(=O)C1CC1 | SARS-CoV-2 | viral replication | 293T/ACE2 |  | IC50 | 16700 nM

A few entries again:
Compound | tested on | test | system | setting | measurement | result
C[C@@H]1C[C@H]2[C@@H]3CCC4=CC(=O)C=C[C@]4(C)[C@@]3(F)[C@@H](O)C[C@]2(C)[C@@]1(O)C(=O)CO | SLC22A2 (Homo sapiens, UniProt O15244) |  |  | 20 µM | inhibition | no inhibition
